Results collected from several papers.
A part holds a random share of what one study measured.
Chain of UniProt Q9H2K8 (whole entry, looked up): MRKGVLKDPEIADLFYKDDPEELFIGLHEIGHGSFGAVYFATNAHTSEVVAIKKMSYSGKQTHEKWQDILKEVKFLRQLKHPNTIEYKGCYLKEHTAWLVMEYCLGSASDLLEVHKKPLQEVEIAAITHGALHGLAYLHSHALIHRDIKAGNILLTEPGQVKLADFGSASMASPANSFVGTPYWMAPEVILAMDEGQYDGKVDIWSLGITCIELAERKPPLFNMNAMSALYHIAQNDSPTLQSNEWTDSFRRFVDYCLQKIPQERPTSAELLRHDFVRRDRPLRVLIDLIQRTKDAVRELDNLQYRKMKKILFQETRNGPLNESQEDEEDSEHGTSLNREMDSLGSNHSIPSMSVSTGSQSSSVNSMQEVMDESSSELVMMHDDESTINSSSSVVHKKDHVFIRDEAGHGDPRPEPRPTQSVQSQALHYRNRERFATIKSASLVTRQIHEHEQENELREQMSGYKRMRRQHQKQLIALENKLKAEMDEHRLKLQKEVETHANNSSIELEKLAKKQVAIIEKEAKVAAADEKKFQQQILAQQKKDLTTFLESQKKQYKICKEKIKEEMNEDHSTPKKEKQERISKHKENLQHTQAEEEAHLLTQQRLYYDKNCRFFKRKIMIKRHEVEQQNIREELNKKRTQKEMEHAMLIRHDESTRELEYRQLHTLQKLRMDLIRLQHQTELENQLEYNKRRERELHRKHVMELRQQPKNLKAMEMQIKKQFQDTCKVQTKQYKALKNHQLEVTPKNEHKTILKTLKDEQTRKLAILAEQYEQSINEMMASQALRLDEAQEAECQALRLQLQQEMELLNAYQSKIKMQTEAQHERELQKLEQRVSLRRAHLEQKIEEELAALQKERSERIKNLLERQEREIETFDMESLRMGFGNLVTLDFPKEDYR

Series 1
Target: RING finger protein unkempt homolog, zinc fingers 1-6, SBP tag (UNK, Homo sapiens, UniProt Q9C0B0, residues 30-357)
Chain of UniProt Q9C0B0 (30-357, looked up): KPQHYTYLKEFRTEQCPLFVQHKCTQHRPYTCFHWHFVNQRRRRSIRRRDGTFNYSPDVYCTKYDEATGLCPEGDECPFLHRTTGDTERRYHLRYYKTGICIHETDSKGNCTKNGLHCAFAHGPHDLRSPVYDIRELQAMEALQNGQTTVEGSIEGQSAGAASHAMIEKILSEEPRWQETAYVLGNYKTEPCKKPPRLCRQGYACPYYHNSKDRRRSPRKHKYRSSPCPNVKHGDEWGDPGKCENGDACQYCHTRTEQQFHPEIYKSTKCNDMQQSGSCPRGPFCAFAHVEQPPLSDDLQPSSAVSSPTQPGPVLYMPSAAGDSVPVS
Technique: RNA Bind-n-Seq
Form: RNA
Matrix: in vitro
Concentration: 100 nM
Notes: RNA with constant flanks, vertebrate orthologous sites, ends assumed
Baseline: input RNA pool
Reading: higher = stronger binding
`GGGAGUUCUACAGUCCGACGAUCAGGGAUGGCCCCCAACCCCACCUCUGUUUAUUCUGUAAACUACAACCUAUAAAUAACCUUUAGCAUUCCUAUUGUAACAAAAUUAAUUUUUAUGAAAUAAAUUAUAUUUCCUAGUCUAAUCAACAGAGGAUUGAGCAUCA` gave a bound/input enrichment of 0.85 ratio.
For `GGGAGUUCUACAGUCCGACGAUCGCAAUGCAAAAGCAUCCCUUCUCCCAACCCCCUUUUCACUAGGAGAUACAAACGUUACUGUAGAAGAGCAAUUAAACUCAAUAAAUUUAUCUUUUCAGGAUGAUCCAGACUCCAGUACCACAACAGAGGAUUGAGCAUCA`, the bound/input enrichment was 1.03 ratio.
`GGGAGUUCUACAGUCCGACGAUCCCUGCCCGUUUACCCCUAAAAUAGGACUCUCUUAGAAUUGUGUUGCCACUUGUAAAAUCUUAGCAAUAUUACAAUAUAACACACCAAUGAAACAAAAUUUACUCAUUAUUUUGCAAACCACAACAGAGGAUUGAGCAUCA` gave a bound/input enrichment of 1.94 ratio.
The bound/input enrichment of `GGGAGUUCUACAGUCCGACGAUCACGCUUUGACAUCAAGUUGACAAUCAGCUCGUGACCUCAGCCACGAUGAGCACUCAAAUCGAGACAAAUAAAAUGUAGAGAGAAUAUAAGAGUUCAGAUAAACACCACUAGUCUUUGAACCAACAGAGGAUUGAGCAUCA` is reported as 0.214 ratio.
`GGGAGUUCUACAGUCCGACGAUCUAUCUUUAGGAUGAAGCUCUUGCACCGAGUGUCACAGGUCUGGAAAACAGAUGGCUUGACAAGUUGUUCUUAUAAAUUAUUGUCUGUGGAACACAAUCCUUUAUAUAUCAACAUCACCGUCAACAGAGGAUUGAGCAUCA` has a bound/input enrichment of 0.84 ratio.
`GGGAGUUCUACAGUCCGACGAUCUUUUAUUGAUCAGGUCUGUAAAUGUGUACUAAAAAAAUCAGAGUUUAUUUAUAAACAGAAUAGUUUAUUUAAAAAGGUCUUUCUUCAUUGAUAUUGUGGUAUGCAUUAAUUCCAUUUGUUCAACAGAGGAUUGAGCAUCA` gave a bound/input enrichment of 0.209 ratio.
With `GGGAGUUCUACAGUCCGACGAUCGGUUGAUGUUUUGAAGAACCACUUAGUAAAAGAAGGUCGAGUAGAUGAAGAAAUUGCACUUAGAAUUAUCAAUGAGGGUGCUGCCAUCCUUCGGAGAGAGAAAACCAUGAUAGAAGUAGACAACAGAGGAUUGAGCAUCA` the bound/input enrichment was 1.17 ratio.
`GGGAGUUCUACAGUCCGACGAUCUUAGGUAGGGGUAACCAUUAAUUUACUUAAACUAAAGAAAUGAAAUGUUGAAAAUCAUAUUAGUACUAAGUUUGGUUGGAAAAUUUCUCCAGCUAAACUUCCUUCUCUCAUCCUCCAUCCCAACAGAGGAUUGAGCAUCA` has a bound/input enrichment of 1.18 ratio.

Series 2
Target: RNA binding protein fox-1 homolog 2, RRM domain, GST-SBP tag (RBFOX2, Homo sapiens, UniProt O43251-10, residues 100-194)
Technique: RNA Bind-n-Seq
Form: RNA
Matrix: in vitro
Concentration: 365 nM
Notes: natural RNA segment, single round, ends assumed
Baseline: no-protein control
Reading: higher = stronger binding
Residues (chain): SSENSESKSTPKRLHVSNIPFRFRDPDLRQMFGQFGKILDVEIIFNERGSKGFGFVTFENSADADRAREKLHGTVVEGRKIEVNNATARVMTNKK
For `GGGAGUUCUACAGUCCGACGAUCGUUGGCUCGCUUUCUGUGUCUGUUAAAUGAAUGUCAUAUGUAAAUGCUAAACUAAGUCAACAGUGUCUCAGAACUGAAUAACUGCAGUGACUUGAUGCUCUAAAUCAUUGUGGAAUUCUCGGGUGCCAA`, “RBNS enrichment (R)” read 0.541.
`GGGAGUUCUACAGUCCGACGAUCCCUGAUCCCUGACUUUGGGGAACCCAGAUCUUUCCUUUGAUUUUUGCUCCUAAUGAUCAAAACCCCAAUUGCAACCAUGUGGCAAGUGGCCAGCUGAGCCCAGGUUACUUUGGAAUUCUCGGGUGCCAA` — result for “RBNS enrichment (R)”: 0.392.
`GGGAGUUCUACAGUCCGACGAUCUAGCCCCAUCUGGACCAUCCACCCACAUCUGCUUGUCAAUCUGGCUGCAAACCUAAGCAGGCAGGUAGUCUAUGGACUUCCAAACUUAGAAGGGUCUGAUAUUAGGUUUAUGGAAUUCUCGGGUGCCAA` — result for “RBNS enrichment (R)”: 0.26.
`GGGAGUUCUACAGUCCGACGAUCAAUAUAUUUUAAAUCAUUUUAUUAAGAGAAAAAGUAAGCCAUUGAACUCUUGAGACUGCAUUGUCUUAUAUUCUGUAAGUUCAGAAAUGUAAGUGAAAAAGCCGUGACCAUGGAAUUCUCGGGUGCCAA`: “RBNS enrichment (R)” 0.348.
`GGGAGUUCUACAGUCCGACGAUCGUGGAAUAGAUAAUUUGCUGCAUGUUAAUUCUCAAGAACUAAGCCUGUGCCAGUGCUUUCCUAAGCAGUAUACCUUUAAUCAGAACUCAUUCCCAGAACCUGGAUGCUAUUGGAAUUCUCGGGUGCCAA` — result for “RBNS enrichment (R)”: 4.69.
`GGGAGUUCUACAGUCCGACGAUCAAAUGUCAGCAUAUGUAGCAAGUUUUCUAAGAAUGUAACUUAAUUUGAAGCUCCUGAAAUUUUGAGCACUGCUCUAACAUUGUAGGAAGUUAGUGACAUUUUGCAAGUCUUGGAAUUCUCGGGUGCCAA`: “RBNS enrichment (R)” 0.482.
`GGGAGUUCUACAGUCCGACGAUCAACCCACAAUCUCCACCAGCAGAGCUGGUGUUGUUCUGAAUAGUGCAGACUGAUUCGAACACAAGGCAUCUGUGAGGGGAGUCCUCCCUCUUCAAAGCAUCUGUGUGAGGUGGAAUUCUCGGGUGCCAA`: “RBNS enrichment (R)” 0.476.
For `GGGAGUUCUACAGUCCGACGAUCGGACUCUAUUGUUCCCUCUUGUAUAGGCACUUUACAUUUCUUGUCACUACAGCAACCACAUACAGUACAGACAACCUCCAAACCUGUUUAUAUUAGUGUAAAUAGAAAAUUGGAAUUCUCGGGUGCCAA`, “RBNS enrichment (R)” read 0.414.

Series 3
Target: Centromere-binding protein 1, full length, N-terminal tag (CBF1, Saccharomyces cerevisiae, UniProt P17106, residues 1-351)
Chain of UniProt P17106 (whole entry, looked up): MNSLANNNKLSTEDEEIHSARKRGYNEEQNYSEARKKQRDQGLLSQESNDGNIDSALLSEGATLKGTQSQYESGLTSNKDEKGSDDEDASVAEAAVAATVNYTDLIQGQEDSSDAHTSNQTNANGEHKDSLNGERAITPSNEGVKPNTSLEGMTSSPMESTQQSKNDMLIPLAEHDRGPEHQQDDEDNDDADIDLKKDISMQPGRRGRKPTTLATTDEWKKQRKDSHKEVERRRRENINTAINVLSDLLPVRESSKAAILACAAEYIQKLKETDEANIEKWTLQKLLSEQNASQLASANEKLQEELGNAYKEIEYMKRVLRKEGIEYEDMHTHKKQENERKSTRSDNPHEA
Technique: protein-binding microarray
Form: double-stranded DNA, one strand shown
Matrix: in vitro
Concentration: 0.8 µM
Notes: whole 60-bp probe, no competitor
Reading: higher = stronger binding
The fluorescence intensity of `TGTACGAAGCTATACCACACCATTATAGTAGTTAGGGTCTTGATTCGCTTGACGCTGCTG` is reported as 525 a.u.
With `CTATCGTAGATTCATCATGTTCTATACGTTTTTTTCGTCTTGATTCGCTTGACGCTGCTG` the fluorescence intensity was 485 a.u.
`CTATATAGCTGATAGCACGTTCTTTTTAAGTTGTTCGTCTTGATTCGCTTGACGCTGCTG` has a fluorescence intensity of 625 a.u.
`CTACTAATCAAATGTATCGTGACTGGGTGTTGCTTCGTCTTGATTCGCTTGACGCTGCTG` gave a fluorescence intensity of 1130 a.u.
`GAAAGCGGTGAGCGTCACCCTAAAGAACACCGATAGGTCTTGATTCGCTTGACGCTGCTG` gave a fluorescence intensity of 491 a.u.
For `CTATTTTCTTCACATCAGGCTTCGCATAGAAAATTCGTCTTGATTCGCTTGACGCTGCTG`, the fluorescence intensity was 547 a.u.
`CTAATTTAACACGTGATTAAGTTACTCTAATATTTCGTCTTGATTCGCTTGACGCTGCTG` has a fluorescence intensity of 20600 a.u.
For `GAACTCTTTATTCATCTGACCTAGTATTTATTCTAGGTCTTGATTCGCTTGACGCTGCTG`, the fluorescence intensity was 714 a.u.

Further values, each from its own experiment
The remaining activity of c1cc(-c2cnn3cc(-c4ccc(OCCN5CCCCC5)cc4)cnc23)ccn1 is reported as 104% (Serine/threonine-protein kinase TAO3 (TAOK3, Homo sapiens, UniProt Q9H2K8); enzyme activity, inhibitor; 0.5 µM; baseline: control).

For quick reference, copied from above (series 3):
`CTACTAATCAAATGTATCGTGACTGGGTGTTGCTTCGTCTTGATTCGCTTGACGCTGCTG` gave a fluorescence intensity of 1130 a.u.
`GAAAGCGGTGAGCGTCACCCTAAAGAACACCGATAGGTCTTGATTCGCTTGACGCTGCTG` gave a fluorescence intensity of 491 a.u.
For `GAACTCTTTATTCATCTGACCTAGTATTTATTCTAGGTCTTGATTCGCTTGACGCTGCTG`, the fluorescence intensity was 714 a.u.
With `CTATCGTAGATTCATCATGTTCTATACGTTTTTTTCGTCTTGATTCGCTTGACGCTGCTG` the fluorescence intensity was 485 a.u.
